Published values gathered from unrelated publications.
Lines come from different studies, so protocols differ. ± gives the spread as reported.

COC[C@@H](NC(C)=O)C(=O)NCc1ccc(OCc2ccc(OC(F)(F)F)cc2)cc1
licking time (formalin test, phase I; mouse; ip, 8.0 mg/kg; reference: vehicle): 66%

CC[C@H](C)[C@H](NC(=O)[C@H](CCCNC(=N)N)NC(=O)[C@H](CCC(N)=O)NC(=O)[C@H](CC(=O)O)NC(=O)[C@H](CC(C)C)NC(=O)[C@H](CC(C)C)NC(=O)[C@H](CC(N)=O)NC(=O)[C@H](Cc1ccccc1)NC(=O)[C@H](CC(=O)O)NC(=O)[C@@H](NC(=O)[C@@H](NC(=O)[C@H](CC(N)=O)NC(=O)CNC(=O)[C@H](CO)NC(C)=O)C(C)C)[C@@H](C)CC)C(=O)N[C@H](C(=O)N[C@@H](Cc1c[nH]c2ccccc12)C(=O)N[C@@H](CCC(N)=O)C(=O)N[C@@H](CC(N)=O)C(=O)N[C@@H](Cc1c[nH]c2ccccc12)C(=O)N[C@@H](Cc1ccc(O)cc1)C(=O)N[C@@H](C)C(N)=O)[C@@H](C)CC
α4β7− CCR9− cells (measured: HA-02 tetramer; antigen-experienced tetramer+ CD4 T cells, healthy adults, HLA-DRB1*0101; dose not given): 0%

CCN(Cc1ccccc1)C(=O)CCc1nc(CN2CCN(C(=O)Cc3ccc(OC)c(OC)c3)CC2)no1
resting membrane potential (current clamp; L4-L6 DRG neurons, rat CCI model; 1 µM): -65.8 ± 2.68 mV

Cc1ccc(/C=C/C(=O)O)cc1-c1cc2c(cc1C)C(C)(C)CCC2(C)C
log2 fold change (RNA sequencing, measured: Acot1 mRNA; rat, brain; dose not given, 24 h, single dose; reference: vehicle): 0.41

CC[C@H](C)[C@H](NC(=O)[C@@H](NC(=O)[C@H](CC(=O)O)NC(C)=O)[C@@H](C)O)C(=O)N[C@@H](CCCNC(=N)N)C(=O)N[C@@H](CC(C)C)C(=O)N[C@@H](CC(C)C)C(=O)N[C@@H](Cc1ccccc1)C(=O)N[C@@H](CCC(N)=O)C(=O)N[C@@H](CC(C)C)C(=O)N[C@@H](CCSC)C(=O)N[C@@H](CCCNC(=N)N)C(=O)N1CCC[C@H]1C(=O)N1CCC[C@H]1C(=O)N[C@@H](CC(N)=O)C(=O)N[C@@H](CCSC)C(=O)N[C@H](C(=O)N1CCC[C@H]1C(=O)N[C@@H](C)C(=O)N[C@H](C(=O)N[C@@H](CC(N)=O)C(=O)N[C@@H](C)C(N)=O)C(C)C)[C@@H](C)O
α4β7+ CCR9+ cells (measured: HA-52 tetramer; antigen-experienced tetramer+ CD4 T cells, healthy adults, HLA-DRB1*0101; dose not given): 25%

CC(C)C[C@H](NC(=O)[C@H](C)NC(=O)CNC(=O)[C@H](CO)NC(=O)CNC(=O)[C@H](CCCNC(=N)N)NC(=O)[C@H](CCCNC(=N)N)NC(=O)[C@H](CCCNC(=N)N)NC(=O)[C@H](CCC(N)=O)NC(=O)[C@H](CCCNC(=N)N)NC(=O)[C@H](CCCNC(=N)N)NC(=O)[C@H](CCCCN)NC(=O)[C@H](CCCCN)NC(=O)[C@H](CCCNC(=N)N)NC(=O)CNC(=O)[C@@H](N)Cc1ccc(O)cc1)C(=O)N[C@@H](CO)C(=O)N[C@H](C(=O)N[C@@H](CCC(=O)O)C(=O)N[C@@H](CCCNC(=N)N)C(=O)O)[C@@H](C)O
MARCKS phosphorylation (inhibitor; isolated rat heart; concentration not given, ischemia/reperfusion): no inhibition

O=C1N[C@@H](Cc2ccccc2)C(=O)N2CCC[C@@H]2C(=O)N[C@@H](Cc2ccccc2)C(=O)N[C@H]1Cc1c[nH]c2ccccc12
duration of antinociceptive activity (agonist; C57BL/6J mouse; 10 nmol): ≤ 100 min

C[C@]12CC[C@H](O)CC1CCC1C2[C@H](O)C(=O)[C@]2(C)[C@@H](c3ccc(=O)oc3)CC[C@]12O (stereo partly drawn)
Vmax (sulfation, substrate; guinea pig liver cytosol): 0.017 ± 0.001 nmol/min/mg

CC(C)C[C@H](NC(=O)CN)C(=O)NCC(=O)N[C@@H](CCCCN)C(=O)N[C@@H](CC(C)C)C(=O)N[C@@H](CC(C)C)C(=O)N[C@@H](Cc1c[nH]cn1)C(=O)N[C@@H](C)C(=O)N[C@@H](C)C(=O)N[C@@H](CCCCN)C(=O)N[C@@H](CCCCN)C(=O)N[C@@H](CC(C)C)C(=O)NCC(=O)N[C@@H](CCCCN)C(=O)N[C@@H](C)C(=O)N[C@@H](Cc1c[nH]c2ccccc12)C(=O)N[C@@H](CC(C)C)C(=O)NCC(=O)N[C@@H](CCC(=O)O)C(=O)N[C@@H](CC(C)C)C(=O)N[C@@H](CC(C)C)C(=O)N[C@@H](C)C(=O)N[C@@H](C)C(=O)O
DPX/ANTS release rate ratio (POPC/POPG 1:1 vesicles; reference: DPX over ANTS): 3

C[C@@H](O)[C@H](NC(=O)[C@@H]1CSSC[C@H](NC(=O)[C@@H](Cc2ccccc2)NC(=O)CN2CCN(CC(N)=O)CCN(CC(N)=O)CCN(CC(N)=O)CC2)C(=O)N[C@@H](Cc2ccc(O)cc2)C(=O)N[C@H](Cc2c[nH]c3ccccc23)C(=O)N[C@@H](CCCCN)C(=O)N[C@@H]([C@@H](C)O)C(=O)N1)C(=O)O [lead-212 labelled]
median survival (AR-42J tumour, mice; three x 10 µCi, three-week intervals): 9.4 weeks

CC[C@H](C)[C@H](NC(=O)[C@H](Cc1c[nH]c2ccccc12)NC(=O)[C@H](CCCNC(=N)N)NC(=O)[C@H](CCCCN)NC(=O)[C@H](CC(C)C)NC(=O)[C@H](CC(=O)O)NC(=O)[C@H](Cc1ccccc1)NC(=O)[C@H](C)NC(=O)[C@H](Cc1ccc(O)cc1)NC(=O)[C@H](CC(N)=O)NC(=O)[C@H](Cc1ccc(O)cc1)NC(=O)[C@H](CCCNC(=N)N)NC(=O)[C@H](Cc1ccc(O)cc1)NC(=O)[C@H](Cc1ccc(O)cc1)NC(=O)[C@@H](NC(=O)[C@H](CC(C)C)NC(=O)[C@H](C)NC(=O)[C@H](CC(N)=O)NC(=O)[C@H](Cc1ccc(O)cc1)NC(C)=O)[C@@H](C)CC)C(=O)N[C@@H](Cc1ccc(O)cc1)C(=O)N[C@@H](CC(C)C)C(N)=O
α4β7− CCR9− cells (measured: HA-15 tetramer; antigen-experienced tetramer+ CD4 T cells, healthy adults, HLA-DRB1*0101; dose not given): 50%

CC(C)C[C@H](NC(=O)[C@H](CCCCN)NC(=O)[C@H](CCCNC(=N)N)NC(=O)[C@@H](CC(C)C)NC(=O)[C@H](Cc1c[nH]c2ccccc12)NC(=O)[C@H](CC(=O)O)NC(=O)[C@H](CCCCN)NC(=O)[C@@H](CC(C)C)NC(=O)[C@H](CCCNC(=N)N)NC(=O)[C@H](CCC(N)=O)NC(=O)[C@@H](NC(=O)[C@@H](CC(C)C)NC(=O)[C@H](CCCNC(=N)N)NC(=O)[C@H](CCCCN)NC(=O)[C@H](Cc1ccc(C(C)(C)C)cc1)NC(=O)CN)C(C)C)C(=O)N[C@H](C(N)=O)C(C)C
CCL2 level (ELISA; C57BL/6 mouse, catheter infection, peri-catheter tissue; dose not given, 3 d; reference: untreated infected): increased

COc1cc(C(Oc2ccc(C[C@H](N)C(=O)N[C@H](C)C(=O)NCC(=O)N(C)[C@@H](Cc3ccccc3)C(=O)NCCO)cc2)C(=O)O)c([N+](=O)[O-])cc1OC (stereo partly drawn)
IPSC suppression fraction (inhibitory synaptic transmission, whole-cell voltage clamp; mouse hippocampal slices CA1; 1 µM, no light): -0.046 ± 0.05

CC(C)C[C@@H]1NC(=O)[C@H](C(C)C)NC(=O)[C@H](CO)NC(=O)CNC(=O)CNC(=O)[C@H](CCCNC(=N)N)NC(=O)[C@@H]2CCCN2C(=O)[C@@H](NC(=O)CC[C@H](NC(=O)c2ccc(N(C)Cc3cnc4nc(N)nc(N)c4n3)cc2)C(=O)O)C(C)(C)SSC[C@@H](C(=O)O)NC(=O)CNC(=O)[C@H]([C@@H](C)O)NC(=O)[C@H](C(C)C)NC1=O
spleen weight (rat adjuvant arthritis; iv, 1 mg/kg once daily, day 14): 0.403 ± 0.0202 g

Cc1cc(O)cc(C)c1CC(N)C(=O)NC1CCNc2c1cc(Cc1ccccc1)cc2C(F)(F)F (stereo not drawn)
antinociception (warm water tail withdrawal; male C57BL/6 mice; intraperitoneal, 10 mg/kg): inactive

Excerpt of the above:
CC(C)C[C@@H]1NC(=O)[C@H](C(C)C)NC(=O)[C@H](CO)NC(=O)CNC(=O)CNC(=O)[C@H](CCCNC(=N)N)NC(=O)[C@@H]2CCCN2C(=O)[C@@H](NC(=O)CC[C@H](NC(=O)c2ccc(N(C)Cc3cnc4nc(N)nc(N)c4n3)cc2)C(=O)O)C(C)(C)SSC[C@@H](C(=O)O)NC(=O)CNC(=O)[C@H]([C@@H](C)O)NC(=O)[C@H](C(C)C)NC1=O
spleen weight (rat adjuvant arthritis; iv, 1 mg/kg once daily, day 14): 0.403 ± 0.0202 g
